Assay results gathered from unrelated publications.
Protocols differ between the studies behind these lines. ± marks the error that the study gave.

| Compound | cell line | effect on | method | time | IC50 |
| --- | --- | --- | --- | --- | --- |
| CNC(=O)c1cc(Oc2ccc(NC(=O)c3cc(-c4ccccc4OC(=O)CCC(=O)OC4OC5OC6(C)CCC7C(C)CCC(C4C)C57OO6)ccn3)cc2)ccn1 (centres unmarked) | Hep3B | cell growth or viability | MTT | 72 h | 6.15 µM |
| C[C@H]1C(OCCCCCCCCCCC[P+](c2ccccc2)(c2ccccc2)c2ccccc2)O[C@@H]2O[C@@]3(C)CCC4[C@H](C)CCC1[C@]42OO3 (some centres unmarked) | OVCAR-3 | cell growth or viability | MTT | 72 h | 0.117 µM |
| COc1ccc(C(c2c(C)nn(-c3ccccc3)c2O)c2c(C)nn(-c3ccccc3)c2O)cc1OC | Ishikawa | cell growth or viability | MTT | 48 h | > 40 µM |
| O=C1CC2(C1)C(=O)[O][Pt]1([Cl])([O]C(=O)C(Cl)Cl)([NH][C@@H]3CCCC[C@H]3[NH]1)[O]C2=O | SGC-7901/CDDP cisplatin-resistant | cell viability | MTT | 48 h | 120 ± 6.74 µM |
| CC[C@H](C)[C@H](NC(=O)CNC(=O)[C@H](C)NC(=O)[C@H](CCC(=O)O)NC(=O)[C@@H]1CCCN1C(=O)CNC(=O)[C@H](C)NC(=O)[C@H](CCC(=O)O)NC(=O)[C@H](C)NC(=O)[C@H](CC(=O)O)NC(=O)[C@H](C)NC(=O)[C@H](CCC(=O)O)NC(=O)[C@H](C)NC(=O)[C@H](CCC(=O)O)NC(=O)[C@@H]1CCCN1C(=O)[C@@H](N)CCC(=O)O)C(=O)NCC(=O)N[C@@H](C)C(=O)N[C@H](C(=O)N[C@@H](CC(C)C)C(=O)N[C@@H](CCCCN)C(=O)N[C@H](C(=O)N[C@@H](CC(C)C)C(=O)N[C@H](C(=O)N[C@H](C(=O)NCC(=O)N[C@@H](CC(C)C)C(=O)N1CCC[C@H]1C(=O)N[C@@H](C)C(=O)N[C@@H](CC(C)C)C(=O)N[C@H](C(=O)N[C@@H](CO)C(=O)N[C@@H](Cc1c[nH]c2ccccc12)C(=O)N[C@H](C(=O)N[C@@H](CCCCN)C(=O)N[C@@H](CCCNC(=N)N)C(=O)N[C@@H](CCCCN)C(=O)N[C@@H](CCCNC(=N)N)C(=O)N[C@@H](CCC(N)=O)C(=O)N[C@@H](CCC(N)=O)C(N)=O)[C@@H](C)CC)[C@@H](C)CC)[C@@H](C)O)[C@@H](C)O)C(C)C)C(C)C | MCF7 FAP-transfected | cell viability | MTT | 72 h | 26.8 ± 1.1 µM |
| COc1ccc2sc3c(c2c1)SCCNC3=O | PANC-1 | cell growth or viability | MTT |  | 28 µM |
| O=C(C[P+]([Au-][Cl])(c1ccccc1)c1ccccc1)[O][Ti+2][O]C(=O)C[P+]([Au-][Cl])(c1ccccc1)c1ccccc1.c1cc[cH-]c1.c1cc[cH-]c1 | CAKI-1 | cell viability | XTT | 72 h | 2.2 µM |
| [Cl][Ag].[Se]=c1n(C2CCCCC2)ccn1C1CCCCC1 | A-375 | cell growth or viability | MTT | 72 h | 1.1 µM |
| CC(C)C[C@H](NC(=O)CCNc1ccc([N+](=O)[O-])c2nonc12)C(=O)N[C@@H](CC(C)C)C(=O)N[C@@H](CC(C)C)C(=O)N[C@@H](CC(C)C)C(=O)N[C@@H](Cc1ccc(OP(=O)(O)O)cc1)C(=O)O | SAOS-2 | cell growth or viability | MTT | 24 h | 122 µM |
| Cc1cc(C)c(N2CCN(c3c(C)cc(C)cc3C)C2=[Se])c(C)c1.[Cl][Ag] | A2780 ADR |  | MTT | 72 h | 0.7 ± 0.1 µM |
| CC1(CCCOC2C(O)OC(CO)C(O)C2O)C(=O)[O][Pt][O]C1=O.NC1CCCCC1N (mixture of isomers) | DU145 GLUT1 shRNA knockdown | cytotoxicity | MTT | 7.5 h then 64 h recovery | 26 µM |

Repeated from above:
| Compound | cell line | effect on | method | time | IC50 |
| --- | --- | --- | --- | --- | --- |
| [Cl][Ag].[Se]=c1n(C2CCCCC2)ccn1C1CCCCC1 | A-375 | cell growth or viability | MTT | 72 h | 1.1 µM |
